Results gathered from unrelated publications.
Lines come from different studies, so protocols differ. Values joined by “and” are separate records of one study, mostly repeats; a detail may differ.

CC[C@H](C)[C@H](NC(=O)[C@H](CC(C)C)NC(=O)[C@H](Cc1c[nH]c2ccccc12)NC(=O)[C@H](CCC(N)=O)NC(=O)[C@@H](NC(=O)[C@H](Cc1ccccc1)NC(=O)[C@H](C)NC(=O)[C@H](CCCCNC(=O)COCCOCCNC(=O)COCCOCCNC(=O)CC[C@H](NC(=O)CCCCCCCCCCCCCCCCCCC(=O)O)C(=O)O)NC(=O)[C@H](CCC(N)=O)NC(=O)[C@H](C)NC(=O)[C@@H](NC(=O)[C@H](CCCCN)NC(=O)[C@H](CC(=O)O)NC(=O)[C@H](CC(C)C)NC(=O)C(C)(C)NC(=O)[C@@H](NC(=O)[C@H](CO)NC(=O)[C@H](Cc1ccc(O)cc1)NC(=O)[C@H](CC(=O)O)NC(=O)[C@H](CO)NC(=O)[C@@H](NC(=O)[C@H](Cc1ccccc1)NC(=O)[C@@H](NC(=O)CNC(=O)[C@H](CCC(=O)O)NC(=O)C(C)(C)NC(=O)[C@@H](N)Cc1ccc(O)cc1)[C@@H](C)O)[C@@H](C)O)[C@@H](C)CC)[C@@H](C)CC)C(C)C)C(=O)N[C@@H](C)C(=O)NCC(=O)NCC(=O)N1CCC[C@H]1C(=O)N[C@@H](CO)C(=O)N[C@@H](CO)C(=O)NCC(=O)N[C@@H](C)C(=O)N1CCC[C@H]1C(=O)N1CCC[C@H]1C(=O)N1CCC[C@H]1C(=O)N[C@@H](CO)C(N)=O
injection site reaction (healthy human; 0.25 mg, single ascending dose): 16.7%

LEAPFLYLYALVYFL
responding donors (human CD4 T cells; AIM; peptide): 7%

Nc1ncnc2c([C@@H]3N[C@H](CO)[C@@H](O)[C@H]3O)c[nH]c12
antigen-positive cells (Marburg virus; antibody staining; HeLa, Musoke; 50 µM): 0.237% and 2.6%

Cn1cnc(Cn2c(=O)[nH]/c(=N\c3cc4cn(C)nc4cc3Cl)n(Cc3cc(F)c(F)cc3F)c2=O)n1
AUC(0-inf) (human, moderate renal impairment, plasma; oral, 375 mg single dose): 1480 µg·h/mL

GVYYHKNNK
frequency of responding donors (AIM; peptide, CD8+ T cells from PBMC, human donors; HLA-A*03:01 restricted, unit not given; reference: positive over tested donors): 25

CC(C)C[C@H](NC(=O)[C@H](Cc1ccccc1)NC(=O)c1cnccn1)B(O)O
inhibition (Replicase polyprotein 1ab, main protease (rep, Severe acute respiratory syndrome coronavirus 2, UniProt P0DTD1); reporter gene (Gaussia luciferase), inhibitor; 20 µM): -4.59%

Repeated from above:
GVYYHKNNK
frequency of responding donors (AIM; peptide, CD8+ T cells from PBMC, human donors; HLA-A*03:01 restricted, unit not given; reference: positive over tested donors): 25
